Measurements pooled from the literature.
Numbers after ± are the reported error.
ABO G235S/G268A/L266M/R176G: Histo-blood group ABO system transferase (ABO, Homo sapiens, UniProt P16442, G235S/G268A/L266M/R176G)
Sequence of UniProt P16442 (whole entry, unmodified, looked up): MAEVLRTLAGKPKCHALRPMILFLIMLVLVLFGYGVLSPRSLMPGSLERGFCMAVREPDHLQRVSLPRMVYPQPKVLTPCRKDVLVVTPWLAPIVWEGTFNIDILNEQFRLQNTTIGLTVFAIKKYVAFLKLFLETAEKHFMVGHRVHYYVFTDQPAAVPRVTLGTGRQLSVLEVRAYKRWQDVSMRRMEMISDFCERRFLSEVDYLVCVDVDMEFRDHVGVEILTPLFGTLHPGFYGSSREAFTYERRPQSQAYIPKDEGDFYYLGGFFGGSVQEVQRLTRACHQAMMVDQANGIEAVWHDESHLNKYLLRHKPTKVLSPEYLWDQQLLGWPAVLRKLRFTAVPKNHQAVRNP
T1: DNA aptamer, 5' T15 spacer; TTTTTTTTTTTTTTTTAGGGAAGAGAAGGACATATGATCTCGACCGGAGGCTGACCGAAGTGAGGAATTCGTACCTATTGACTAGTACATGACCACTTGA
Sequence of UniProt P06241 (whole entry, looked up): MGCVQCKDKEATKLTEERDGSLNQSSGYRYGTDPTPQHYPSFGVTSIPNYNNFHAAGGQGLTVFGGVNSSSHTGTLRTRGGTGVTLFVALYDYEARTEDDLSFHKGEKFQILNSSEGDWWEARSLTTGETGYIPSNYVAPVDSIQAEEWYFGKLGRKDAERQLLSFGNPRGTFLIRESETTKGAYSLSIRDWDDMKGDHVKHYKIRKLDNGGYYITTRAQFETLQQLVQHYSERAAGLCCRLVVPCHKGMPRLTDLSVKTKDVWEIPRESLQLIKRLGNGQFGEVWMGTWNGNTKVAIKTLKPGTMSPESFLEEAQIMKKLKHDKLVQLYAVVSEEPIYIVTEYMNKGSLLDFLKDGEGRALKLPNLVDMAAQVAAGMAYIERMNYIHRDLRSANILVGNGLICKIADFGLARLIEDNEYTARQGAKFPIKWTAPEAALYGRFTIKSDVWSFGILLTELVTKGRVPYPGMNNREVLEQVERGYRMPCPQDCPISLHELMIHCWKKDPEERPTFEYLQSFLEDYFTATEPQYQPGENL
Sequence of UniProt P31266 (whole entry, unmodified, looked up): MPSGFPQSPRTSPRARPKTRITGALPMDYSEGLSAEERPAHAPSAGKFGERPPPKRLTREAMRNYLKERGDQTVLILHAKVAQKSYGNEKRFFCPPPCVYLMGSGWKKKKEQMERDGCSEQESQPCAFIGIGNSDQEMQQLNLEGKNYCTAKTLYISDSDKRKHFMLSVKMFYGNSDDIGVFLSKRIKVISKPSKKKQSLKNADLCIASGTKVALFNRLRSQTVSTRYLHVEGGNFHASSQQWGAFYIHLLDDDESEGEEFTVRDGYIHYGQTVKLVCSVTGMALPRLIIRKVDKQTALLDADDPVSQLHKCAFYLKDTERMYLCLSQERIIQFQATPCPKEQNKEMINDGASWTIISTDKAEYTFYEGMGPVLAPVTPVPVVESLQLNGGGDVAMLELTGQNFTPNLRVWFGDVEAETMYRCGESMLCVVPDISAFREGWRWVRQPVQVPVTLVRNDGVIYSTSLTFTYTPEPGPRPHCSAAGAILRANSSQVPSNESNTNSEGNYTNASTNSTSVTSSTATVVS
Sequence of UniProt Q29437 (whole entry, looked up): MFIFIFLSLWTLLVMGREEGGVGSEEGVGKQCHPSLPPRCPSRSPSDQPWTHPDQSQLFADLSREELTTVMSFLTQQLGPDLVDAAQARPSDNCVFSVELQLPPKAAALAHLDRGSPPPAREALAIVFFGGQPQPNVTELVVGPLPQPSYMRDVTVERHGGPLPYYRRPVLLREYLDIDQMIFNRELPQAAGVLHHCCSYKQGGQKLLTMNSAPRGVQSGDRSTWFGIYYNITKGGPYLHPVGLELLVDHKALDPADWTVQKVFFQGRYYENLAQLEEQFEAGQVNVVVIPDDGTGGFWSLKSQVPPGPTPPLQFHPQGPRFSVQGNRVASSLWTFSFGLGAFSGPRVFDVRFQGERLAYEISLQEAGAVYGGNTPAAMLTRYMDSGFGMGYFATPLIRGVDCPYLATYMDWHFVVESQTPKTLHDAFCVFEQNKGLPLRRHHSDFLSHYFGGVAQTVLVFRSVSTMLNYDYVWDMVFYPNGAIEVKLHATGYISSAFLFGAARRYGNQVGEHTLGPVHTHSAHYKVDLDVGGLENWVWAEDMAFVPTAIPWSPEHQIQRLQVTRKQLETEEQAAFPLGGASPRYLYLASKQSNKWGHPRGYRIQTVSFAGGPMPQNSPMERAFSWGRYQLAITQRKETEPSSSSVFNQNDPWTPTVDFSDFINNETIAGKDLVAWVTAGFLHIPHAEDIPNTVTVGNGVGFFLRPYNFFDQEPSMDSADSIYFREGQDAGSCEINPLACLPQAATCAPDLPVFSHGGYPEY
Sequence of UniProt P03372 (whole entry, looked up): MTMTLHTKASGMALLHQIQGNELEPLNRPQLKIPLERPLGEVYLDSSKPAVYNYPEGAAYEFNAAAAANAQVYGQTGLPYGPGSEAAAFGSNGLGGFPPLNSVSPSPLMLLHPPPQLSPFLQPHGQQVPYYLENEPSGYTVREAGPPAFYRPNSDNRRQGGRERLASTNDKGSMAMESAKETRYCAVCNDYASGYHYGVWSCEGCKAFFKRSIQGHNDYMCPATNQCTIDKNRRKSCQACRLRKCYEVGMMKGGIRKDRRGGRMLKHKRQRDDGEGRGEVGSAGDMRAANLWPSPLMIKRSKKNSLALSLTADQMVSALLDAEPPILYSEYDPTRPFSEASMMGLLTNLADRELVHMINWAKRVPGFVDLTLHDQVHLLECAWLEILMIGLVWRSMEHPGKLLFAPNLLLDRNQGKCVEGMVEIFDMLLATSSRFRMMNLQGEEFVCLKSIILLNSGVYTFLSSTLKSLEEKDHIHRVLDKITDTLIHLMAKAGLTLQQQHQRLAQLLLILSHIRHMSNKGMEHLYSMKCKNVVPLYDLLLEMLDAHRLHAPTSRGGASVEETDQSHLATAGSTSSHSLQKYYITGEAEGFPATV
Sequence of UniProt Q9NZQ7 (whole entry, looked up): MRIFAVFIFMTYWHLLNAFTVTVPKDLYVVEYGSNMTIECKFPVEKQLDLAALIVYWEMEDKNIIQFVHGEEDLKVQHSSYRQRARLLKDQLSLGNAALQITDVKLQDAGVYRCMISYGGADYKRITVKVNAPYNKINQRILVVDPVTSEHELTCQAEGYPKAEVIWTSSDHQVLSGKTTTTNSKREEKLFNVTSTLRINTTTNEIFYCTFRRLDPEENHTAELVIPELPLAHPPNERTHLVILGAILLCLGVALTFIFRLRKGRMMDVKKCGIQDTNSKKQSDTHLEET
Sequence of UniProt P00433 (whole entry, looked up): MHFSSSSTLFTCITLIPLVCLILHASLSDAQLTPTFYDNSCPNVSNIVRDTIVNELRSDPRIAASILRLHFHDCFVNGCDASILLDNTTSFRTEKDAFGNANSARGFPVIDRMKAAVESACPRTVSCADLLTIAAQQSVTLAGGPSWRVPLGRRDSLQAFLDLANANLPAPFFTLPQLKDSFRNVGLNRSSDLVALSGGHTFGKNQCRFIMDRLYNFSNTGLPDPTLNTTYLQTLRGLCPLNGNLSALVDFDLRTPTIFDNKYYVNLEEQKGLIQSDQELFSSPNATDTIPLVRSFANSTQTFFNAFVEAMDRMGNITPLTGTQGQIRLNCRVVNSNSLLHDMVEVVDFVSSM
Sequence of UniProt P0DMS8 (whole entry, looked up): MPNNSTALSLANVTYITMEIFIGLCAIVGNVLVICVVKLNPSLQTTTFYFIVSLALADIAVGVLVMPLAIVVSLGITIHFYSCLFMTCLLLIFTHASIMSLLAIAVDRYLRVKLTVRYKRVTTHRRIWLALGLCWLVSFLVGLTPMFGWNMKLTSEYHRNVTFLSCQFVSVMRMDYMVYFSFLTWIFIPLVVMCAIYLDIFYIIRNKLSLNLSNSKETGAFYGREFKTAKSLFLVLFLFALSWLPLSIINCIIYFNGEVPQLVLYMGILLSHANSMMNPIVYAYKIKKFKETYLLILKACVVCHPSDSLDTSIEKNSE
Sequence of UniProt Q13546 (whole entry, looked up): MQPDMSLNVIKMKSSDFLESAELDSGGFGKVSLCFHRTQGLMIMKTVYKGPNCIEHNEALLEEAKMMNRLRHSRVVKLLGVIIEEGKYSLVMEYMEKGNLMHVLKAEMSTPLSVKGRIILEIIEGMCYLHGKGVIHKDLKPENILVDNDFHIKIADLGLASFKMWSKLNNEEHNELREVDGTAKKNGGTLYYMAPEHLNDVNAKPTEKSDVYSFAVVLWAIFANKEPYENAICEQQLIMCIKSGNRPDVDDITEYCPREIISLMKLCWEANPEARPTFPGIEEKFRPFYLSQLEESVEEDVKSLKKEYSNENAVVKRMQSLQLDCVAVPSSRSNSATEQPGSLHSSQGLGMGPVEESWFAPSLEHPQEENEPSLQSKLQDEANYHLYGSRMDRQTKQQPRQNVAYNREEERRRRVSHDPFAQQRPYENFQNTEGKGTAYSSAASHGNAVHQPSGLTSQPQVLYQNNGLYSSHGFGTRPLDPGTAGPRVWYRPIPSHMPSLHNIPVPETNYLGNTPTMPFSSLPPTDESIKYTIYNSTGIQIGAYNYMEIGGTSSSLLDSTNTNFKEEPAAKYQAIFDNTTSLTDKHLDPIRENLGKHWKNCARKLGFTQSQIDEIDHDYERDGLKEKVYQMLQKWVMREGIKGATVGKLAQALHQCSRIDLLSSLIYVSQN
Sequence of UniProt P11229 (whole entry, looked up): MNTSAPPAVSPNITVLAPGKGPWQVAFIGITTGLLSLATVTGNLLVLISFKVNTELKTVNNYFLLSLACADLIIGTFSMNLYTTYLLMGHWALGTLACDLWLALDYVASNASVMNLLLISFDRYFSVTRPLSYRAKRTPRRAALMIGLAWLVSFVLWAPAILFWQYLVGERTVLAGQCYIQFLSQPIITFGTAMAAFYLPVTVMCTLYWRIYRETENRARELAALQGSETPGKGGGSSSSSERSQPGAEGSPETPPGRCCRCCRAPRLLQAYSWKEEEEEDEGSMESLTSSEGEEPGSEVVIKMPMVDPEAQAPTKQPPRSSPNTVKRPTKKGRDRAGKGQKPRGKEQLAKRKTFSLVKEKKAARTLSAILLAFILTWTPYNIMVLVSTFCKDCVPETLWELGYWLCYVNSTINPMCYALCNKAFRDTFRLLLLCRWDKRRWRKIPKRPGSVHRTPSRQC

| Compound | target | test | system | setting | scale | measurement | result |
| --- | --- | --- | --- | --- | --- | --- | --- |
| C[C@H](N)C(=O)N[C@@H](CCCNC(=N)N)C(=O)N[C@H](C(=O)N[C@@H](CCCC[N+](C)(C)C)C(=O)N[C@@H](CCC(N)=O)C(=O)N[C@H](C(=O)N[C@@H](C)C(=O)N[C@@H](CCCNC(=N)N)C(=O)N[C@@H](CCCCN)C(=O)N[C@@H](CO)C(=O)N[C@H](C(=O)NCC(=O)NCC(=O)N[C@@H](CCCCN)C(=O)N[C@@H](C)C(=O)N[C@@H](CCCCNC(=O)c1ccc2c(c1)C(=O)OC21c2ccc(O)cc2Oc2cc(O)ccc21)C(N)=O)[C@@H](C)O)[C@@H](C)O)[C@@H](C)O | Inhibitor of growth protein 1, PHD finger (ING1, Homo sapiens, UniProt Q9UK53) | fluorescence polarisation |  | 25 °C, with: H3K4me3 peptide |  | binding free energy | -6.52 ± 0.167 kcal/mol |
| O=C(c1cc2c(s1)CCCCC2)N1CCC(n2c(=O)[nH]c3ccccc32)CC1 | Short transient receptor potential channel 6 (Trpc6, Mus musculus, UniProt Q61143, K697R) | ion current, agonist, whole-cell patch clamp |  | 100 µM, K697R mutant |  | maximal current density | 8.53 ± 2.36 pA/pF |
| O=C(Cc1cccc(C(F)(F)F)c1)Nc1cc(Oc2c(Cl)cc3nc(NC(=O)C4CC4)sc3c2Cl)ccc1F | Receptor-interacting serine/threonine-protein kinase 1 (RIPK1, Homo sapiens, UniProt Q13546) | KINOMEscan binding Kd |  |  | relative to: RIPK1 over RIPK3, higher = more RIPK1-selective | selectivity ratio | > 78 |
| CCC(C)/C=C/C(C)=C\C=C\C(C)=C\C=O (stereo not shown) | Rhodopsin (RHO, Homo sapiens, UniProt P08100, T289P) | pharmacological chaperone, immunostaining, nonpermeabilized cells | 661W | 2.5 µM, 16 h | relative to: untreated cells | cell surface expression | ~6 fold |
| CC(CCC(=O)NC(CCC(=O)Nc1cccnc1F)C(=O)O)C1CCC2C3C(O)CC4CC(O)CCC4(C)C3CCC12C (stereo not shown) | Ileal sodium/bile acid cotransporter (SLC10A2, Homo sapiens, UniProt Q12908) | transport | MDCK expressing ASBT |  | relative to: Ki over Kt | Ki over Kt | > 7 fold |
| COc1nc(OCc2cccc(-c3ccccc3)c2C)ccc1CNCCNC(=O)CCCc1cn(CCC(=O)N[C@@H](CC(=O)O)C(=O)N[C@@H](Cc2c[nH]cn2)C(=O)N[C@@H](CC(C)C)C(=O)N[C@@H](C)C(=O)N[C@@H](CO)C(=O)N[C@@H](CC(C)C)C(=O)N[C@@H](Cc2c[nH]c3ccccc23)C(=O)N[C@@H](Cc2c[nH]c3ccccc23)C(=O)NCC(=O)N[C@H](C(=O)N[C@@H](CCC(=O)O)C(=O)N[C@@H](CC(C)C)C(=O)O)[C@@H](C)O)nn1 | Programmed cell death 1 ligand 1 (CD274, Homo sapiens, UniProt Q9NZQ7) | protein degradation, degrader, Western blot | HepG2 | 3 µM |  | time to maximum degradation | 24 h |
| CCN(C(=O)C1CCN(S(=O)(=O)c2ccc3[nH]ncc3c2)CC1)[C@H]1CCc2ccccc21 | Muscarinic acetylcholine receptor M5 (CHRM5, Homo sapiens, UniProt P08912) | calcium mobilization | CHO cells expressing human M5 | with: acetylcholine EC20 |  | positive allosteric modulation | inactive |
| Nc1ncnc2c1ncn2[C@@H]1O[C@H](CO)[C@@H](O[C@H]2O[C@H](CO)[C@@H](OP(=O)(O)O)[C@H](OP(=O)(O)O)[C@H]2O)[C@H]1O | Inositol 1,4,5-trisphosphate-gated calcium channel ITPR1, IP3-binding core (Itpr1, Rattus norvegicus, UniProt P29994, R504Q) | binding, 3H-IP3 competition |  | IP3-binding core IBC^R504Q |  | Hill coefficient | 1.8 ± 0.7 |
| CNc1nc(C#Cc2ccc(Cl)s2)nc2c1ncn2[C@@H]1O[C@H](CO)[C@@H](O)[C@H]1O | Adenosine receptor A3 (ADORA3, Homo sapiens, UniProt P0DMS8) | kinetic radioligand binding |  | 10 °C, no GTP, with: [3H]PSB-11 |  | kon | 820000 ± 380000 M⁻¹ s⁻¹ |
| C=CCCCCCCO[C@@H]1O[C@H](CO)[C@@H](O[C@@H]2O[C@H](CO)[C@H](O)[C@H](O)[C@H]2O[C@@H]2O[C@@H](C)[C@@H](O)[C@@H](O)[C@@H]2O)[C@H](O)[C@H]1NC(C)=O | ABO G235S/G268A/L266M/R176G | methyl-TROSY NMR titration lineshape |  | two-state binding model, with: acceptor binding, saturating UDP |  | kon | 170000 M⁻¹ s⁻¹ |
| CC(=O)N[C@@H](COP(=O)(O)O)C(=O)N1CCC[C@H]1C(=O)N[C@H](C(=O)N[C@@H](Cc1ccccc1)C(N)=O)[C@@H](C)O | Breast cancer type 1 susceptibility protein, tandem BRCT domains (BRCA1, Homo sapiens, UniProt P38398) | binding, isothermal titration calorimetry |  | concentration not given |  | heat capacity change | -303 ± 27 cal/(mol·K) |
| CCCCCCOc1ccc(C(=O)OCCN2CC=CCC2)cc1 | Muscarinic acetylcholine receptor M1 (CHRM1, Homo sapiens, UniProt P11229) | antagonist, refers to: inositol phosphates | CHO | M1, with: carbachol |  | cooperativity factor | 0.001 ± 0.0003 |
| C[C@]12CC[C@@H]3c4ccc(O)cc4C(=NOCC(=O)O)C[C@H]3[C@@H]1CC[C@@H]2O | T1, DNA aptamer, 5' T15 spacer | plate-ELAA |  | NaCl 100 mM |  | Kd | 0.95 nM |
| CSCC[C@H](NC(=O)[C@H](Cc1c[nH]c2ccccc12)NC(=O)[C@@H](NC(=O)[C@@H](NC(=O)[C@@H](NC(=O)[C@H](C)NC(=O)[C@@H](NC(=O)[C@H](C)NC(=O)[C@H](CCCCN)NC(=O)[C@H](CCCCN)NC(=O)[C@@H](NC(=O)[C@H](CC(N)=O)NC(=O)[C@H](CCC(=O)O)NC(=O)[C@@H](N)CCSC)C(C)C)[C@@H](C)O)[C@@H](C)O)[C@@H](C)O)[C@@H](C)O)C(=O)N[C@H](C(=O)N1CCC[C@H]1C(=O)N[C@H](C(=O)N[C@@H](C)C(=O)N[C@@H](C)C(=O)O)[C@@H](C)O)C(C)C | Recombining binding protein suppressor of hairless (Rbpj, Mus musculus, UniProt P31266) | isothermal titration calorimetry |  | 25 °C | relative to: wild-type peptide | ΔΔG° | 0 kcal/mol |
| C=C1CN(S(=O)(=O)c2ccc(C)cc2)CCCN(Cc2ccccc2)CCCN(S(=O)(=O)c2ccc(C)cc2)C1 | Sortilin (Homo sapiens, UniProt Q99523) | SILAC mass spectrometry | SUP-T1, crude membrane fraction | 10 µM, 17 h, reverse labelling | relative to: DMSO over compound | protein level ratio | 3.48 |
| C[C@@H]1O[C@@H](O[C@@H]2C(=O)c3c(O)cc(O)cc3O[C@@H]2c2ccc(O)cc2)[C@H](O)[C@H](O)[C@H]1O | Tyrosine-protein phosphatase non-receptor type 1 (PTPN1, Homo sapiens, UniProt P18031) | fluorescence quenching |  | concentration not given |  | binding site number | 1.18 |
| O=C(CSC(=S)N1CCCCCC1)Nc1cccc2c1C(=O)c1ccccc1C2=O | Tyrosine-protein kinase Fyn (FYN, Homo sapiens, UniProt P06241) | RTK phosphorylation antibody array | A549 | concentration not given | relative to: control | phosphorylation decrease | 2.8 fold |
| CCCCCCCCO[C@@H]1O[C@H](CO)[C@H](O)C[C@H]1O[C@@H]1O[C@@H](C)[C@@H](O)[C@@H](O)[C@@H]1O | ABO G235S/G268A/L266M/R176G | methyl-TROSY NMR titration lineshape analysis |  | apo enzyme |  | koff | 3300 ± 200 s⁻¹ |
| O=c1cc(-c2ccc(O)c(-c3c(-c4ccc(O)cc4)oc4cc(O)cc(O)c4c3=O)c2)oc2cc(O)cc(O)c12 | PRXC1A (Armoracia rusticana, UniProt P00433) | oxidation, substrate |  |  |  | Vmax | 3.36 ± 0.6 µmol/min/mg |
| O=C1CCC(N2C(=O)c3ccc(N4CCC(C(=O)N5CCC(CCN6CCC(CNC(=O)c7cccc(-c8noc(C(F)(F)F)n8)c7)(c7nc(-c8ccccc8)cs7)CC6)CC5)CC4)cc3C2=O)C(=O)N1 (stereo not shown) | Histone deacetylase 7 (HDAC7, Homo sapiens, UniProt Q8WUI4) | degrader, Western blot | HL-60 | 1 µM, 12 h |  | maximum degradation | > 85% |
| C=C1C(=O)O[C@@H]2[C@H]3C(CO)=CC(=O)C3=C(C)C[C@H](O)[C@@H]12 | Alpha-glucosidase MAL12 (MAL12, Saccharomyces cerevisiae S288c, UniProt P53341) | fluorescence quenching |  | 298 K |  | quenching rate constant Kq | 6.63e+11 M⁻¹ s⁻¹ |
| CCC(=C(c1ccc(Cl)cc1)c1ccc(OCCN(CC)CC)cc1)c1ccc(Cl)cc1 | Estrogen receptor (ESR1, Homo sapiens, UniProt P03372) | reporter gene, agonist, yeast estrogen screen |  | 1 µM | relative to: DMSO | fold activation | 1.17 ± 0.02 fold |
| CCC(=C(c1ccc(O)cc1)c1ccc(OCCN(C)CCOCCOCCOCCN(C)CCOc2ccc(C(=C(CC)c3ccccc3)c3ccc(O)cc3)cc2)cc1)c1ccccc1 (mixture of isomers) | Estrogen receptor beta (ESR2, Homo sapiens, UniProt Q92731) | radioligand competition binding |  | concentration not given, Z-Z/Z isomer form, with: [3H]estradiol tracer | relative to: estradiol | relative binding affinity | 13.9 ± 3.4% |
| CC(=O)C12NC(C)(C)CC1(C)C(=O)C1=C2c2c(c3c4n2C(C)(C)CC2=C4C4(CC(C)(C)NC(C)(C4)C2=O)CC3(C)C)C(=O)C(C)(C)N1 (single isomer, unassigned; (+)) | Mu-type opioid receptor (OPRM1, Homo sapiens, UniProt P35372) | cAMP level, agonist, LANCE Ultra cAMP | CHO cells | concentration not given |  | activity | inactive |
| C[N+](C)(C)CCCOc1ccc2cc(CN)ccc2c1 | Primary amine oxidase, liver isozyme (Bos taurus, UniProt Q29437) | substrate, fluorescence |  | pH 7.2, 30 °C |  | kcat | 0.159 ± 0.002 s⁻¹ |

Some of these lines once more:
| Compound | target | test | system | setting | scale | measurement | result |
| --- | --- | --- | --- | --- | --- | --- | --- |
| Nc1ncnc2c1ncn2[C@@H]1O[C@H](CO)[C@@H](O[C@H]2O[C@H](CO)[C@@H](OP(=O)(O)O)[C@H](OP(=O)(O)O)[C@H]2O)[C@H]1O | Inositol 1,4,5-trisphosphate-gated calcium channel ITPR1, IP3-binding core (Itpr1, Rattus norvegicus, UniProt P29994, R504Q) | binding, 3H-IP3 competition |  | IP3-binding core IBC^R504Q |  | Hill coefficient | 1.8 ± 0.7 |
| CNc1nc(C#Cc2ccc(Cl)s2)nc2c1ncn2[C@@H]1O[C@H](CO)[C@@H](O)[C@H]1O | Adenosine receptor A3 (ADORA3, Homo sapiens, UniProt P0DMS8) | kinetic radioligand binding |  | 10 °C, no GTP, with: [3H]PSB-11 |  | kon | 820000 ± 380000 M⁻¹ s⁻¹ |
